Measured values gathered from unrelated publications.
Numbers after ± are the reported error.
ESR1: Estrogen receptor (ESR1, Homo sapiens, UniProt P03372)
UniProt P03372, sequence (whole entry, looked up): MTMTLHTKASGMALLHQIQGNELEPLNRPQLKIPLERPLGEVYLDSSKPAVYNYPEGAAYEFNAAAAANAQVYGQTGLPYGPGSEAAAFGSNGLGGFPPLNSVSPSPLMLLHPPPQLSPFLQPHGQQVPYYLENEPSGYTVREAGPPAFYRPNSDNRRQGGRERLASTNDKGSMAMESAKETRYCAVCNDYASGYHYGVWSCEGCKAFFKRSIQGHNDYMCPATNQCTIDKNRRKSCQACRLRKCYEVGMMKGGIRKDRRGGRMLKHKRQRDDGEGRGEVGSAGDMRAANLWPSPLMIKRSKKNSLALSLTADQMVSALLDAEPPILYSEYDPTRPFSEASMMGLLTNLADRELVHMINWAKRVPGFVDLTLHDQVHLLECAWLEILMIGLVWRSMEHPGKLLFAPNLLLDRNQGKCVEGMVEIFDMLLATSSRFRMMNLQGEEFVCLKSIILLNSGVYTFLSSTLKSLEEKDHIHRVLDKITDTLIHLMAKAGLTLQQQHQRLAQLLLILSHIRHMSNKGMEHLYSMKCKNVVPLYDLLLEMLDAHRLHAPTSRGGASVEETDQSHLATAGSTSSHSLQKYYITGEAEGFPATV
DRD3: D(3) dopamine receptor (DRD3, Homo sapiens, UniProt P35462)
UniProt P35462, sequence (whole entry, looked up): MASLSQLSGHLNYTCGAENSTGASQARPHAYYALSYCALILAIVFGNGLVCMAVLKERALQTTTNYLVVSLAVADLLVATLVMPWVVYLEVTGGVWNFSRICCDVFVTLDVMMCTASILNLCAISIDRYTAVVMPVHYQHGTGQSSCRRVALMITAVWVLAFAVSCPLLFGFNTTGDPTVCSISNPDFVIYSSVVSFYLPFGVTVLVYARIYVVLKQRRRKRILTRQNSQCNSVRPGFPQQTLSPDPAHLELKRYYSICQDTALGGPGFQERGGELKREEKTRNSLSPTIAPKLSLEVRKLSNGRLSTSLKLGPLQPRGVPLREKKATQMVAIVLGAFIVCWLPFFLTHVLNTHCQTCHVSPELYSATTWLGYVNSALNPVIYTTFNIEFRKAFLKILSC
CDK2 with cyclin A: Cyclin-dependent kinase 2, with cyclin A (CDK2, Homo sapiens, UniProt P24941)
SLC10A1: Hepatic sodium/bile acid cotransporter (SLC10A1, Homo sapiens, UniProt Q14973)
UniProt Q14973, sequence (whole entry, looked up): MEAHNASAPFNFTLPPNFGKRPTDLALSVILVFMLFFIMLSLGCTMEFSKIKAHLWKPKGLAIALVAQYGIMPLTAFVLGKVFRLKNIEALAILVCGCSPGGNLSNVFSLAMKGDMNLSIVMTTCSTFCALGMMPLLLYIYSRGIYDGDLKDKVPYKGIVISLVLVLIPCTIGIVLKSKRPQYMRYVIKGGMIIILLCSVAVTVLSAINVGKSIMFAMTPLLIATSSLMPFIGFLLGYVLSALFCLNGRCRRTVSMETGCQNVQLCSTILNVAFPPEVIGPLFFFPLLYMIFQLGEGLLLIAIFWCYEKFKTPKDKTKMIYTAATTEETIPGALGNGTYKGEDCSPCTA
CDK2: Cyclin-dependent kinase 2 (CDK2, Homo sapiens, UniProt P24941)
RORC: Nuclear receptor ROR-gamma (RORC, Homo sapiens, UniProt P51449)
UniProt P51449, sequence (whole entry, looked up): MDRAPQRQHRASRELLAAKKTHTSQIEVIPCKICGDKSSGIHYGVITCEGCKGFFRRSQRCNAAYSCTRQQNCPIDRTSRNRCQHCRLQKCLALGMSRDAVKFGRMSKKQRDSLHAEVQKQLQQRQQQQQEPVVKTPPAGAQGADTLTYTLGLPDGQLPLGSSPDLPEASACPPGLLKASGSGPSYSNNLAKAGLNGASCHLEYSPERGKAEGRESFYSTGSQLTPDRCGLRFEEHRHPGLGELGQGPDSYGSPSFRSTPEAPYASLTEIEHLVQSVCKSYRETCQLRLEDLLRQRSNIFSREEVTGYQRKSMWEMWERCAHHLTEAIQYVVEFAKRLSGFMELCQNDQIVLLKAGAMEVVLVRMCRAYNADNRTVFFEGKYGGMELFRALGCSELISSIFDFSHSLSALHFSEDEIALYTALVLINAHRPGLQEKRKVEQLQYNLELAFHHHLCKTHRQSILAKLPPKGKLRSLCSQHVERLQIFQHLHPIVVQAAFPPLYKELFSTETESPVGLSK
MBLAC2: MBLAC2 (Homo sapiens, UniProt Q68D91)
UniProt Q68D91, sequence (whole entry, looked up): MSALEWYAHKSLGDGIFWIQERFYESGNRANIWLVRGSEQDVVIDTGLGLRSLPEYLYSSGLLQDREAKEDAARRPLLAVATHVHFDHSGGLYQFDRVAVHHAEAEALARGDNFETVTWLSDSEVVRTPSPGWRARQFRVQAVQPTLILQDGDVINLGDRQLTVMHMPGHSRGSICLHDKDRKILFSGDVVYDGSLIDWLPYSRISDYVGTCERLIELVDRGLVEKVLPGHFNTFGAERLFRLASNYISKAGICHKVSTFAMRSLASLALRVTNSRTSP
UniProt Q96PF2, sequence (whole entry, looked up): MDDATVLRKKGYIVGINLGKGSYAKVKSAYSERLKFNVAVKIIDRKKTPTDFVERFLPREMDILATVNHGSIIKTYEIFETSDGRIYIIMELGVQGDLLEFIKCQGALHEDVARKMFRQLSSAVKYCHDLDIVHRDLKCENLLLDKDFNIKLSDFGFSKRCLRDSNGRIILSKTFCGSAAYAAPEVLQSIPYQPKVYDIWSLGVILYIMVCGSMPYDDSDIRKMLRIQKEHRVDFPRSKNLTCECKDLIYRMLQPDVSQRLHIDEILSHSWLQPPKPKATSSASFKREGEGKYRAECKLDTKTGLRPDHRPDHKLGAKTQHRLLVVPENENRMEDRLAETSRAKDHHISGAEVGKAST
UniProt Q9NWT6, sequence (whole entry, unmodified, looked up): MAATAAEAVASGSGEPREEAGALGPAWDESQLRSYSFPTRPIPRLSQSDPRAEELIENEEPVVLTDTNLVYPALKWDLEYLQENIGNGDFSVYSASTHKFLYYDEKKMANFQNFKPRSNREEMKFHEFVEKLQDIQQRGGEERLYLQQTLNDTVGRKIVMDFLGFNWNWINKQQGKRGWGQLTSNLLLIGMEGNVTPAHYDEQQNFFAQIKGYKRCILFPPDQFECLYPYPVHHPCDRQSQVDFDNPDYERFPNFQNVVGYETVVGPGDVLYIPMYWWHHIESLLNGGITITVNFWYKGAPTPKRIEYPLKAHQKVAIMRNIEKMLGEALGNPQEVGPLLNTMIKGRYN
UniProt Q9UL54, sequence (whole entry, looked up): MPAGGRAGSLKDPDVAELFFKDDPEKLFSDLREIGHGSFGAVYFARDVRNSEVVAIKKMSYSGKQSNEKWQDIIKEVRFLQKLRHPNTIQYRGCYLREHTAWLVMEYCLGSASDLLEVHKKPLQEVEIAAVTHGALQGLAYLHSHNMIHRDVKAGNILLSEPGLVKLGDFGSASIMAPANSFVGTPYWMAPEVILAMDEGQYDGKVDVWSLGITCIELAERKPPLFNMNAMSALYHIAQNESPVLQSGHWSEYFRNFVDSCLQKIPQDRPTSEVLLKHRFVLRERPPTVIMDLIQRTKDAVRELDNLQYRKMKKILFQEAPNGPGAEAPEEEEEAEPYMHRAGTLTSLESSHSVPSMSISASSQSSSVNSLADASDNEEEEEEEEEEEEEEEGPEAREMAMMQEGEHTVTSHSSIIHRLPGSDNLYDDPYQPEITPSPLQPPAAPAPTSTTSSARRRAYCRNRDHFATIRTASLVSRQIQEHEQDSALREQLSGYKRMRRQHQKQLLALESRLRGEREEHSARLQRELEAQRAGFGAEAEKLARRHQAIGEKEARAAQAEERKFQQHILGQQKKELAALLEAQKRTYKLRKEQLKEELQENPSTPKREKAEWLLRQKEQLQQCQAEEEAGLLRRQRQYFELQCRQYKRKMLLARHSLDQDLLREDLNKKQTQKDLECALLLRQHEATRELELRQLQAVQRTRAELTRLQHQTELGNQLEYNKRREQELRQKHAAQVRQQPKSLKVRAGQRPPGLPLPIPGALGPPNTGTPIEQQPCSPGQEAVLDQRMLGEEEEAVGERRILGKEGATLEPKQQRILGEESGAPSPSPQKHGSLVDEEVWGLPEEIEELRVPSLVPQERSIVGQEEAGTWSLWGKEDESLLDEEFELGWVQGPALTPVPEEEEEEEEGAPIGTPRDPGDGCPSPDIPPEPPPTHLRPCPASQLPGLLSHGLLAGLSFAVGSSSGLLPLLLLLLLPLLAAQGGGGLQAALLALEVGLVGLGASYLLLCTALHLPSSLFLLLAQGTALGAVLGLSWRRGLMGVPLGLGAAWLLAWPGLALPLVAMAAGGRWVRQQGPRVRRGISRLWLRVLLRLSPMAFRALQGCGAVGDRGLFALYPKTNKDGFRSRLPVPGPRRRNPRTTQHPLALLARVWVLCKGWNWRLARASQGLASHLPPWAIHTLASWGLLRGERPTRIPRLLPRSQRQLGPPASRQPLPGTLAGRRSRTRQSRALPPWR
UniProt P20309, sequence (whole entry, looked up): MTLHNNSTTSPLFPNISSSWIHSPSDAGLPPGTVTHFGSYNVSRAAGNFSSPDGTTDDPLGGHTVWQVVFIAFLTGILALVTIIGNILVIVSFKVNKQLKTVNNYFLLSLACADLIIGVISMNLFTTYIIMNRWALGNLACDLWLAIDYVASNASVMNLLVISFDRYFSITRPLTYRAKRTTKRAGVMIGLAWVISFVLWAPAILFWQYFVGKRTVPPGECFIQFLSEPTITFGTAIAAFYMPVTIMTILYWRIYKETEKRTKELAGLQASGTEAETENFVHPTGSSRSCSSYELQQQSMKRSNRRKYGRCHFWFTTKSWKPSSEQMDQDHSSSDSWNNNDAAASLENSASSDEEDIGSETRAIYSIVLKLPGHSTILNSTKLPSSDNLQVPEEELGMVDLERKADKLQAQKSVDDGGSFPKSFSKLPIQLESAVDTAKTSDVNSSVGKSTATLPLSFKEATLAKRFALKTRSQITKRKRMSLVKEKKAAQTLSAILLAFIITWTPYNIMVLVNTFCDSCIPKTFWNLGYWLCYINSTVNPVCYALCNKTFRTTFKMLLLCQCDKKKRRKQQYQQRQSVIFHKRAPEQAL

Compound	target	assay	system	setting	endpoint	result
COc1cc(-c2oc3cc(O)cc(O)c3c(=O)c2O)ccc1O	ESR1	array formation, agonist	ERα-GFP PRL-HeLa	1 h	EC50	0.764 µM
Cc1[nH]c(C)c(S(=O)(=O)Nc2ccc(C(F)(F)F)c(Cl)c2)c1C(=O)N1CCC(F)(F)C1	DRD3	β-arrestin recruitment, allosteric modulator, operational model of allostery	–	together with: dopamine	Kb	0.49 µM
O=c1cc(-c2ccc(O)c(O)c2)oc2cc(O)cc(O)c12	ESR1	array formation, agonist	ERα-GFP PRL-HeLa	1 h	EC50	1.66 µM
COc1cccc(NC(=O)CSc2nnnn2C)c1	CDK2 with cyclin A	–	–	–	Kd	> 100 µM
COc1ccc([C@@H]2CC(=O)c3c(O)cc(O)cc3O2)cc1O	ESR1	array formation, agonist	ERα-GFP PRL-HeLa	1 h	EC50	1.52 µM
CC/C(=C(\c1ccccc1)c1ccc(OCCN(C)C)cc1)c1ccccc1	SLC10A1	taurocholate uptake, inhibitor	NTCP-expressing HEK293	together with: 10 µM taurocholate	Ki	87.5 ± 53.8 µM
COc1ccc(-c2coc3cc(O)ccc3c2=O)cc1O	ESR1	array formation, agonist	ERα-GFP PRL-HeLa	1 h	EC50	0.946 µM
Cc1[nH]c(C)c(S(=O)(=O)N2CCC(F)(F)C2)c1C(=O)Nc1ccc(C(F)(F)F)c(Cl)c1	DRD3	β-arrestin recruitment, antagonist, PathHunter	–	together with: dopamine EC80	IC50	> 100 µM
CCCC1O[C@@H]2C[C@H]3[C@@H]4CCC5=CC(=O)C=C[C@]5(C)[C@H]4[C@@H](O)C[C@]3(C)[C@]2(C(=O)CO)O1 (stereo partly shown)	SLC10A1	taurocholate uptake, inhibitor	NTCP-expressing HEK293	together with: 10 µM taurocholate	Ki	264 ± 94 µM
Cc1[nH]c2cccc(C(=O)N3CCC(F)(F)C3)c2c1S(=O)(=O)Nc1ccc(C(F)(F)F)c(Cl)c1	DRD3	β-arrestin recruitment, antagonist, PathHunter	–	together with: dopamine EC80	IC50	> 100 µM
O=C(CC1OCCN(Cc2ccccc2)C1=O)Nc1ccc2c(c1)OCCO2 (stereo not shown)	CDK2	binding	–	–	Kd	> 100 µM
Cc1cccc(S(=O)(=O)N2CCc3ccc(OCc4c(F)cccc4Cl)cc32)c1	RORC	reporter gene, agonist, GAL4 luciferase reporter	–	together with: ursolic acid 2 µM	EC50	0.5 ± 0.11 µM
COC(=O)[C@H]1[C@H]2C[C@@H]3c4[nH]c5cc(OC)ccc5c4CCN3C[C@H]2C[C@@H](OC(=O)c2cc(OC)c(OC)c(OC)c2)[C@@H]1OC	SLC10A1	taurocholate uptake, inhibitor	NTCP-expressing HEK293	together with: 10 µM taurocholate	Ki	89.1 ± 65 µM
CCCN(CCCCOCCOCCOCCOCCOCC(=O)N[C@H](C(=O)N1C[C@H](O)C[C@H]1C(=O)NCc1ccc(-c2scnc2C)cc1)C(C)(C)C)C[C@@H](C)NC(=O)c1ccc(-c2noc(C(F)(F)F)n2)cc1	Histone deacetylase 4 (Hdac4, Mus musculus, UniProt Q6NZM9)	degrader	–	–	DC50	0.071 µM
O=C(O)c1cn(C2CC2)c2cc(N3CCNCC3)c(F)cc2c1=O	SLC10A1	taurocholate uptake, inhibitor	NTCP-expressing HEK293	together with: 10 µM taurocholate	Ki	526 ± 399 µM
Cc1[nH]c(C)c(S(=O)(=O)Nc2ccc(C(F)(F)F)c(Cl)c2)c1C(=O)N(C)Cc1ccccc1	DRD3	Go activation, antagonist, BRET	–	together with: dopamine	IC50	> 100 µM
COc1cc(Cl)ccc1COc1ccc2c(c1)N(S(=O)(=O)c1cccc(C(F)(F)F)c1)CC2	RORC	reporter gene, agonist, GAL4 luciferase reporter	–	together with: ursolic acid 2 µM	EC50	1.5 ± 0.29 µM
CS(=O)(=O)CCNCc1ccc(-c2ccc3ncnc(Nc4ccc(OCc5cccc(F)c5)c(Cl)c4)c3c2)o1	SLC10A1	taurocholate uptake, inhibitor	NTCP-expressing HEK293	together with: 10 µM taurocholate	Ki	95.5 ± 38.9 µM
Cc1[nH]c(C)c(S(=O)(=O)Nc2ccc(C(F)(F)F)c(Cl)c2)c1C(=O)N1CCNCC1	DRD3	Go activation, antagonist, BRET	–	together with: dopamine	IC50	> 100 µM
Cc1ccc(NS(=O)(=O)c2cc(C(=O)Nc3ccccc3C(=O)N3CCOCC3)ccc2Cl)c(C)c1	CDK2	binding	–	–	Kd	> 100 µM
O=c1c(O[C@@H]2O[C@H](CO)[C@@H](O)[C@H](O)[C@H]2O)c(-c2ccc(O)c(O)c2)oc2cc(O[C@@H]3O[C@H](CO[C@@H]4O[C@H](CO)[C@@H](O)[C@H](O)[C@H]4O)[C@@H](O)[C@H](O)[C@H]3O)cc(O)c12	ESR1	array formation, agonist	ERα-GFP PRL-HeLa	1 h	EC50	5.98 µM
OC[C@@H](O)[C@@H](O)[C@H](O)[C@H](O)CO	SLC10A1	taurocholate uptake, inhibitor	NTCP-expressing HEK293	together with: 10 µM taurocholate	Ki	892 ± 501 µM
O=S(=O)(c1cccc(C(F)(F)F)c1)N1CCc2ccc(OCc3c(Cl)cccc3C(F)(F)F)cc21	RORC	reporter gene, agonist, GAL4 luciferase reporter	–	together with: ursolic acid 2 µM	EC50	0.09 ± 0.02 µM

Compound	target	assay	system	setting	endpoint	result
COc1ccccc1NC(=O)CSc1nncn1C	CDK2 with cyclin A	–	–	–	Kd	> 100 µM
CC1Cc2ccc(OCc3c(F)cccc3Cl)cc2N1S(=O)(=O)c1cccc(C(F)(F)F)c1 (stereo not shown)	RORC	reporter gene, agonist, GAL4 luciferase reporter	–	together with: ursolic acid 2 µM	EC50	0.11 ± 0.02 µM
CC[C@@H]1[C@H](F)C(=O)N[C@@H]1COc1nccc2cc(C(N)=O)c(OC)cc12	Serine/threonine-protein kinase TAO2 (TAOK2, Homo sapiens, UniProt Q9UL54)	ATP-site binding, ActivX KiNativ profiling	THP-1 cell lysate	Lys2 TAO2 probe site	IC50	> 5 µM
O=C(O)CC(O)(CC(=O)O)C(=O)O	Hypoxia-inducible factor 1-alpha inhibitor (HIF1AN, Homo sapiens, UniProt Q9NWT6, E105A)	enzyme activity, inhibitor	–	pH 7	IC50	> 1000 µM
CC(C)OC(=O)C(C)(C)Oc1ccc(C(=O)c2ccc(Cl)cc2)cc1	SLC10A1	taurocholate uptake, inhibitor	NTCP-expressing HEK293	together with: 10 µM taurocholate	Ki	211 ± 60 µM
O=S(=O)(O)C[C@@H](O)CO	Uncharacterized protein (Pelagibacter ubique, UniProt Q4FMA9)	binding, isothermal titration calorimetry	Candidatus Pelagibacter ubique	together with: CaCl2 10 mM	Kd	2.27 ± 0.64 µM
O=C(Cn1ccc([N+](=O)[O-])n1)N1CCCc2ccccc21	CDK2 with cyclin A	–	–	–	Kd	> 100 µM
COc1ccc(-c2coc3cc(O)cc(O)c3c2=O)cc1	ESR1	array formation, agonist	ERα-GFP PRL-HeLa	1 h	EC50	0.588 µM
Cc1[nH]c(C)c(S(=O)(=O)Nc2ccc(C(F)(F)F)c(Cl)c2)c1C(=O)N1CCC(C)(C)C1	DRD3	Go activation, antagonist, BRET	–	together with: dopamine	IC50	> 100 µM
O=C1NCCc2nc(OCc3cccc(F)c3)ccc21	Metabotropic glutamate receptor 5 (Grm5, Rattus norvegicus, UniProt P31424)	calcium flux, allosteric modulator, operational model of allosterism	–	together with: glutamate	Kb	2.14 µM
COc1cc(O)c2c(=O)cc(-c3ccc(O)cc3)oc2c1	ESR1	array formation, agonist	ERα-GFP PRL-HeLa	1 h	EC50	0.903 µM
COc1cccc(-n2nnnc2SCC(=O)Nc2c(C)cc(C)cc2C)c1	CDK2	binding	–	–	Kd	> 100 µM
O=S(=O)(c1ccnc(C(F)(F)F)c1)N1CCc2ccc(OCc3c(F)cccc3Cl)cc21	RORC	reporter gene, agonist, GAL4 luciferase reporter	–	together with: ursolic acid 2 µM	EC50	1.6 ± 0.41 µM
O=C(CCCCCCNC(=O)c1cnc(N(c2ccccc2)c2ccccc2Cl)nc1)NO	MBLAC2	inhibitor, competition pulldown	SW620 and MV4-11 lysate	1 h	Kd	1.55 µM
CCOc1ccc2nc(SCC(=O)Nc3c(C)n(C)n(-c4ccccc4)c3=O)sc2c1	CDK2 with cyclin A	–	–	–	Kd	> 100 µM
Cc1[nH]c(C)c(S(=O)(=O)Nc2cc(Cl)c(C(F)(F)F)cc2Br)c1C(=O)N1CCC(F)(F)C1	DRD3	Go activation, antagonist, BRET	–	together with: dopamine	IC50	> 100 µM
Cn1c(Cc2ccccc2)nnc1Sc1ccc([N+](=O)[O-])cc1C(=O)N1CCOCC1	CDK2	binding	–	–	Kd	> 100 µM
Cn1cc2c(C(=O)O)ccc(NS(=O)(=O)c3ccc(OCC4CCC4)c(Cl)c3)c2n1	Muscarinic acetylcholine receptor M3 (CHRM3, Homo sapiens, UniProt P20309)	agonist	–	–	EC50	> 10 µM
Cc1ccc(S(=O)(=O)Nc2c(C)[nH]c(C)c2C(=O)N2CCC(F)(F)C2)cc1	DRD3	β-arrestin recruitment, antagonist, PathHunter	–	together with: dopamine EC80	IC50	> 100 µM
CN1CCN(c2ccc(Nc3ncc4cc(C#N)c(=O)n(C5CCCC5)c4n3)cc2)CC1	Testis-specific serine/threonine-protein kinase 2 (TSSK2, Homo sapiens, UniProt Q96PF2)	–	–	–	IC50	4.41 µM
CO/N=C(\C(=O)N[C@@H]1C(=O)N2C(C(=O)O)=C(CSc3nc(=O)c(=O)[nH]n3C)CS[C@H]12)c1csc(N)n1	SLC10A1	taurocholate uptake, inhibitor	NTCP-expressing HEK293	together with: 10 µM taurocholate	Ki	1290 ± 4340 µM
CCCCC/C=C/C(=O)CCc1ccc(O)c(OC)c1	ESR1	array formation, agonist	ERα-GFP PRL-HeLa	1 h	EC50	1.7 µM
Cc1[nH]c2ccccc2c1CCNCc1ccc(/C=C/C(=O)NO)cc1	MBLAC2	inhibitor, competition pulldown	SW620 and MV4-11 lysate	1 h	Kd	1.38 µM

Some of these lines once more:
Compound	target	assay	system	setting	endpoint	result
Cc1ccc(NS(=O)(=O)c2cc(C(=O)Nc3ccccc3C(=O)N3CCOCC3)ccc2Cl)c(C)c1	CDK2	binding	–	–	Kd	> 100 µM
O=c1c(O[C@@H]2O[C@H](CO)[C@@H](O)[C@H](O)[C@H]2O)c(-c2ccc(O)c(O)c2)oc2cc(O[C@@H]3O[C@H](CO[C@@H]4O[C@H](CO)[C@@H](O)[C@H](O)[C@H]4O)[C@@H](O)[C@H](O)[C@H]3O)cc(O)c12	ESR1	array formation, agonist	ERα-GFP PRL-HeLa	1 h	EC50	5.98 µM
OC[C@@H](O)[C@@H](O)[C@H](O)[C@H](O)CO	SLC10A1	taurocholate uptake, inhibitor	NTCP-expressing HEK293	together with: 10 µM taurocholate	Ki	892 ± 501 µM
O=S(=O)(c1cccc(C(F)(F)F)c1)N1CCc2ccc(OCc3c(Cl)cccc3C(F)(F)F)cc21	RORC	reporter gene, agonist, GAL4 luciferase reporter	–	together with: ursolic acid 2 µM	EC50	0.09 ± 0.02 µM
